# Published values pooled from the literature.
# Numbered parts are unrelated; each lists some results of a single study. Changes are numbered by the printed parent chain.

# Set 1
# Target: RNA binding protein fox-1 homolog 2, RRM domain, GST-SBP tag (RBFOX2, Homo sapiens, UniProt O43251-10, residues 100-194)
# Method: RNA Bind-n-Seq
# Form: RNA
# Medium: in vitro
# Tested at: 365 nM
# Setting: natural RNA segment, single round, ends assumed
# Relative to: no-protein control
# Reading: higher = stronger binding
# Target sequence (chain): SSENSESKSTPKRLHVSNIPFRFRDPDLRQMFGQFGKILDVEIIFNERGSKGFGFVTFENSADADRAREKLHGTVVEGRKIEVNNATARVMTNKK
Strand,RBNS enrichment (R)
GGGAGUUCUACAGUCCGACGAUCAUGUUCUGUAGUGUGUUUACCCUCAUUAUGAAGCAAAUUAGCAAUGCAUUGAUUAAUGUUCACUUAUACAUUCCUGUACAGAAAUUAUGAUUUUUGUGAUUAUAGUAAUAUGGAAUUCUCGGGUGCCAA,0.331
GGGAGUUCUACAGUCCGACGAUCACCAGGUUGAUUUUAGUAACCCAAUUGCUUUGAUUUGACAUUAAUGUAGUCUUACAGGGCUGUGCUUGCUGGGCAUGCUUUUACGUCUGUGAGAUAAUUUCGGUUCAGUAUGGAAUUCUCGGGUGCCAA,4.14
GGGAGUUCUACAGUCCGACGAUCUUUUGUUUACAAGGAAUCUUGACUGACCAAAAGGCAUUGUAACUCUGCCACAGUACAAGGUACAGAGUAUGGGCAUCUUAGAGGAAAUGUCUGCUUCCGUCCCCUCGUUCUGGAAUUCUCGGGUGCCAA,0.61
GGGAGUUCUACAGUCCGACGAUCUUGGGGUGGUGCUGGGUCAUUACUUCUGAGCCCCAGCCCCAAUCCAGAGAAGCGCUGUUGCCCGCCCUCCACCCACUAGGUGAACAGCAGGAUGCCCUGUUGGGGGCUUCUGGAAUUCUCGGGUGCCAA,0.274
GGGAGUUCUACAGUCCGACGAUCCCAGUUGAACUUUCUAAGUCUGUGAUCCCCGUGCUGACUGUGGAAGUGUAUUUAUACCAAGAUGGAGAUCUUGACUUCUUGAAUAUAUCUGGACUGGUAAAAUCUUGAUGUGGAAUUCUCGGGUGCCAA,0.504
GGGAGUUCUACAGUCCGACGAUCGUUUUUUUUUCAUUUUAAACCAAAUGCAUGUAUAAUCAUGUUGGAAUAUGUUAAGAUCUAUGGAUAUUCUGUAGCAAGAGAAAAUAUCUUUGCCUUAACUCCACUGCUGUUGGAAUUCUCGGGUGCCAA,2.53
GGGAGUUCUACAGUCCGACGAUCAAGCUCCUUGGCCUCUGAGGACCCCUAAUAACCCAGAAUCUUGGGGAGCCCUUUCCUUUGAGAAUACAAGCAUGUCUCUGAGGCAUCCUCAGACCUGGAGUGCUCCCCAAUGGAAUUCUCGGGUGCCAA,0.595
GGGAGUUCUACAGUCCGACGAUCCAGAGUGCACAUGAAAAAUCAGGCAGGGAAUCGAAACGACAGUGCUGGAGGAGACUCAGGAAGCAGAGGCGUCCCUGCCGCUGCCCUUGGCCCUGCAAGCACAUCAUGACUGGAAUUCUCGGGUGCCAA,0.284
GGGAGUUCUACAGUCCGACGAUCGUAAUACUGACCAUUUUAGUCCCCUAGGUUUGACAUGGGAGAUAGUGACUACACUGGUGUCUGACUUUUUUCCUAGAGAUUUCUCCCUGAAAAAUACAAGGGCUGUUGGUUGGAAUUCUCGGGUGCCAA,5.03
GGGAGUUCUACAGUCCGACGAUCUUUGCCUUUGAUUUCCUACCACUGUCUGAGCUAUCAUAAAGCAUUCUCUUUAGUUGUGAUUUGAUUCUAUAGUCUGUUUCUAAAUGACAUUUGUCUGUUUCUUAAAUGAUUGGAAUUCUCGGGUGCCAA,0.935
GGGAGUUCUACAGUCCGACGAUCAGCCCCUGGCGACAAGCAGUGUCUAGAAGAGGAUCUGGAGCCAGGCAGACUGGCUGCUUUUAUUUUGAAGUUCCCAAGAGGAAUGGAGGGAUGCUUUAAGGGUGGGAACAUGGAAUUCUCGGGUGCCAA,0.577
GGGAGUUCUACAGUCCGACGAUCCCCGAAGGGAGCUCUGGACCCUCAGAGCCCCUGCAGAGGACGGAUCUAGCUCCUGUAUAUAUAUUUUAUUGCAUGCACUGUGACCUUGGGGGGAGAACAGAAGGGGGACGUGGAAUUCUCGGGUGCCAA,21.2

# Set 2
# Target: ABI1, truncated, D143A, DHFR fusion (Arabidopsis thaliana)
# Method: DHFR PCA, deep sequencing
# Medium: yeast
# Setting: methotrexate growth selection, single substitutions
# With: (+)-ABA 17 µM
# Relative to: wild-type fitted maximum
# Reading: higher = stronger binding
# Parent: PYL1, truncated, DHFR fusion (Arabidopsis thaliana); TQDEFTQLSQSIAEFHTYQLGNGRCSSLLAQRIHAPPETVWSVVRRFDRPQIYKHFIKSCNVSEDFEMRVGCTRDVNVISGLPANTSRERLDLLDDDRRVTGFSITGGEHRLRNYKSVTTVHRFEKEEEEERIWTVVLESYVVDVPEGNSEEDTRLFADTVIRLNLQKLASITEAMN; partner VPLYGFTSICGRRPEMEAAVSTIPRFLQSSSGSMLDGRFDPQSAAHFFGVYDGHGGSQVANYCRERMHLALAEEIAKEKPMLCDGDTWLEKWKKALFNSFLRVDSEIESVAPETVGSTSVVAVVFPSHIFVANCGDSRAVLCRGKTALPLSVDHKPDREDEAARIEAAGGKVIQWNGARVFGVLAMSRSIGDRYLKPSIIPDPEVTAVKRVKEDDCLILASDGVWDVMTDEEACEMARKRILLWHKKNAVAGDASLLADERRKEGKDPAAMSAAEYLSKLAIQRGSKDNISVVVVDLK
Variant,relative binding score [%]
F124R,48.8
A170H,7.29
I52K,74.4
L166I,2.3
C72V,86.4
P36Y,51.6
G71K,-4.74
Q2E,84
P50K,-15.3
I33Q,-6.22
E4G,67.7
T106M,79.6
D75Y,86.6
S26H,79.9

# Set 3
# Target: CCNB2, cyclin fold, Cln2 fusion (human)
# Method: yeast growth competition, sequencing
# Medium: yeast
# Setting: strong parent motif
# Relative to: not given
# Reading: higher = stronger binding
# Parent: PKMYT1 docking peptide (human); SFEPRNLLSLFED; partner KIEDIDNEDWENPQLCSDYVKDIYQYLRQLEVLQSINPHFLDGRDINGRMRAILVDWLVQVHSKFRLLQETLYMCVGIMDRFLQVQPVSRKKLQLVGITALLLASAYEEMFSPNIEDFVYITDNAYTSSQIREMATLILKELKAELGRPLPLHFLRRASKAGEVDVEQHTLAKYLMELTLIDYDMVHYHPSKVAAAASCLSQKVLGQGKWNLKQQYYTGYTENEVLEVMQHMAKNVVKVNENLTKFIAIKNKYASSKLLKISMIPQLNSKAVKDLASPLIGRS
Variant,normalised enrichment score
SFEPRNLLSLDED [F11D],-0.393
SFEPRNLLSTFED [L10T],0.747
SFEPRALLSLFED [N6A],0.0413
SFEPRNLLSLFEN [D13N],1.13
SFEPRILLSLFED [N6I],-0.157
SAEPRNLLSLFED [F2A],0.379
SFEPRNLVSLFED [L8V],0.15
HFEPRNLLSLFED [S1H],1.59
SFEPRNLLSLFQD [E12Q],0.305
SFEPRVLLSLFED [N6V],-0.364
SFQPRNLLSLFED [E3Q],1.58
SFEPRNLLSLFEE [D13E],1.7
SFEPRFLLSLFED [N6F],-0.316
SFEPRNLLKLFED [S9K],0.616
SFVPRNLLSLFED [E3V],1.87

# Single results of other studies
Substance,target,assay,system,conditions,how to read,measurement,value
"PhoQ, residues 284 288 289 292 302 303 ALAMYF","PhoP, residues 12 14 15 18 19 SQCLL (Escherichia coli, UniProt P23836)","Sort-seq, item: YFP reporter",E. coli,"PhoQ-PhoP variant library, with: 10 µM Mg2+","relative to: high Mg2+ state, higher = stronger signaling",fold induction,1.47

# Repeated from above (set 3):
Variant,normalised enrichment score
SFEPRNLLSLFQD [E12Q],0.305
SFEPRNLLSTFED [L10T],0.747
